# Experimental data of several laboratories.
# Each numbered part is a random draw from the data of one study; scales do not carry over between parts. Positions count from the first letter of the parent shown.

# Series 1 — technique: protein-binding microarray; form: double-stranded DNA, one strand shown; matrix: in vitro; concentration: 2200 nM top; notes: 60-bp whole probe; added: salmon DNA 0.4 mg/ml; reference: random background probes; direction: higher = stronger binding; all sequences stand within: GCCTAGCAC … GTCTTGATTCGCTTGACGCTGCTG
# Target: Interferon regulatory factor 7, full length, phosphomimetic (IRF7, Homo sapiens, UniProt Q92985, residues 1-503, S471D/S472D/S475D/S476D/S477D/S483D/S484D/S487D)
# Chain of UniProt Q92985 (whole entry, unmodified, looked up): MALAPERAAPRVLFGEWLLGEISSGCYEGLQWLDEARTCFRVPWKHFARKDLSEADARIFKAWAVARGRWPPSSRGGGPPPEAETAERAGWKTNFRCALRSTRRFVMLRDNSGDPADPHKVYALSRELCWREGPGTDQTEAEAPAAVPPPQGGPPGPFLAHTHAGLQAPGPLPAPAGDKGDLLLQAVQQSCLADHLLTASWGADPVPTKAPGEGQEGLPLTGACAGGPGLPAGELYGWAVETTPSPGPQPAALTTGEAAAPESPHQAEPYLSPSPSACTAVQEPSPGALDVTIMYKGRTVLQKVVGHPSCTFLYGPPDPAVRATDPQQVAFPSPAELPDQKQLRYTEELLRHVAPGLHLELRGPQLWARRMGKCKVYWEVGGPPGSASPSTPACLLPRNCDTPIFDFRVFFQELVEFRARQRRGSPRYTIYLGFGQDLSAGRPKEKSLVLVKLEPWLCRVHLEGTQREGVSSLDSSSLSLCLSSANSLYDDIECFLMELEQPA
Strand,fitted relative affinity [z-score]
GTAGGTATCGGTTTCGGTTAGTGCTAG,7.02
CACTCTCAGAATCTCTCATGGTGCTAG,1.03
TACAAATCCAGCCCTACAGAGTGCTAG,0.303
GACGGACTGGGGACTGGGGGCGTGCTA,0.0532
GACGGTATCCTTTTCCTGATGTGCTAG,1.36
TTAGGTATCGACTATCGTTTAGTGCTA,0.382
AAAGTTATCACTTCCAAAGTGTGCTAG,0.461
GACGATTTCGGATTTCGAGACGTGCTA,3.8
TTAGGACTGGGCACTGGGTTAGTGCTA,-1.14
TTAGCTATCGACTATCGGTTAGTGCTA,0.332
GCCGGTCTCGGTTTCGGGACGTGCTAG,3.92
TTAGGTAACCTTCTCCTTTAGTGCTAG,0.614
TTAGATTTCGGGTATCGATCAGTGCTA,2.66
TTTCGTTACTTCCTCAAACAGTGCTAG,9.33
ATAGGTTTCGACTTTCGGTTAGTGCTA,10.9
TTAGGACTGCTTACCCTTTAGTGCTAG,0.606
TTAGTTATCCTTTTCCTTTAGTGCTAG,2.7
GACGGACTGGGAATCGGGACGTGCTAG,-0.809
TTAGGTTTTGGGTATCGGTTAGTGCTA,1.69

# Series 2 — technique: RNA Bind-n-Seq; form: RNA; matrix: in vitro; concentration: 20 nM; notes: 6-mer, flanks averaged, single round; added: 150 mM LiCl; reference: input library; direction: higher = stronger binding
# Target: TAR DNA-binding protein 43, full length, His tag (TARDBP, Homo sapiens, UniProt Q13148, residues 1-414)
Strand,6-mer enrichment (R)
GGAAUA,0.916
ACAAGG,0.894
CUUCAU,0.9
CAAUUG,0.919
UAUUCA,0.916
ACUGCU,0.882
CUGAAG,0.877
CAGUCG,0.89
AGACUC,0.853
CGAGGG,1.1
UCCCUA,0.99
UCAGGU,0.926
UUCGAU,0.852

# Series 3 — technique: DHFR PCA, deep sequencing; matrix: yeast; added: (+)-ABA 2500 µM; reference: wild-type fitted maximum; direction: higher = stronger binding
# Target: ABI1, truncated, D143A, DHFR fusion (Arabidopsis thaliana)
# Notes: methotrexate growth selection, single substitutions
# Starting sequence: PYL1, truncated, DHFR fusion (Arabidopsis thaliana); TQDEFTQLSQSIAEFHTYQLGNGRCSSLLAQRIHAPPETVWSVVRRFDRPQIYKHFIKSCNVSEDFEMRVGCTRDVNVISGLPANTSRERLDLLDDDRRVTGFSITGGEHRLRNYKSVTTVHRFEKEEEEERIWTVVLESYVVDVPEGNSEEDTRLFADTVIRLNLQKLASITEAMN
Change,relative binding score
C25S,89.3%
N85C,97.4%
L8Q,102%
G107H,98.9%
D96P,86.8%
Q2M,96.6%
S63N,97.6%
P37Y,84.2%
A35P,0.363%
I133F,104%

# Series 4 — technique: RNA Bind-n-Seq; form: RNA; matrix: in vitro; concentration: 365 nM; reference: no-protein control; direction: higher = stronger binding
# Target: RNA binding protein fox-1 homolog 2, RRM domain, GST-SBP tag (RBFOX2, Homo sapiens, UniProt O43251-10, residues 100-194)
# Notes: natural RNA segment, single round, ends assumed
# All sequences stand within: GGGAGUUCUACAGUCCGACGAUC … UGGAAUUCUCGGGUGCCAA
# Construct (chain): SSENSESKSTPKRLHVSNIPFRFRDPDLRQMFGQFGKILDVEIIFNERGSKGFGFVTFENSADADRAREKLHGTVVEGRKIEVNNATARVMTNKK
Strand,RBNS enrichment (R)
CAUUGCUCUCUCCUAAGCCCCAACCCCACUCCACUCCUGUGGCCAGGGGUCCAAACAGAAAAUAACCGGAGAAGACAAGGAGGUCAAAGGAUCAGGGAACUAAGCAUUAU,0.944
CCAACCCAUGAACUCUUCACUCCUUGGGGAAGCCACCUCCCAUCACACCCCUGAGCAGAGUUAGGGAGGAAUUCUACUUCCCAUAAAAGGACCUCUCCUGAGAGGCAAAA,0.344
AACAAAAAAAAAUGAAAAAAAAAAAGAAAAAUGAAAAAAGUGUGUUGUUAUAGUAACAUAAAUAAUACACAGAAUUUUGUUACACUAUCAGUUUGGGGGGUGAGCUUUGA,1.23
AAUUGAGACAUUUCUAGCAUUACUUAAUGACUUGCAUUGUGGUUUUUCUGCAAGCAACUUUAAUGACUUUUUUUAUACCACAUGGUCUCCCAGUUUCUAGAUGAAUGCAA,2.31
CAAACAUUCAUGUGGCUUCGCUGGGGAGGAAAAAAAUAAGCACCUACUGUGUGCCAGGCACUAUGAGGCACUUUUCUAUUUAUCCUCUUUUAAGAUAGGACUAAGAGUUC,0.412
UAGUUAUAAAAAAGACACUUCGAAUUAUUUGAGUUAUAAAUAGCUUUUGUGACAGGAGCAUACCCAGAAUAAAACACGCCUACCUGUUAACUCGUUCAAAUAAUGUGGUC,0.443
AAAUUUAAAGUUUCUUUACUUCAAUUAACUUAAAGGACCAAUAAACCCAUAAAAGAUGCUUUCUUUAUCUGGAGUCAUGUCCUCAUUUGUACCUUUUUGUAAGGCAGAAA,0.372
GGUCCUUGCUGUGACCUGUGCCCAGGAGGGUGUGAUCCGAUUGAAGCCUCAGGUGUCAGAGAGUAAGCUAUAGUGAAAGAUGCCUGGCUCGGCCUGGGGCUAAAAGGACU,0.439

# Some of these lines once more (series 2):
Strand,6-mer enrichment (R)
CUGAAG,0.877
CAGUCG,0.89
AGACUC,0.853
CGAGGG,1.1
UCCCUA,0.99
UCAGGU,0.926
UUCGAU,0.852
